Assay results collected from several papers.
A part holds a random share of what one study measured. Positions count from the first letter of the parent shown.

Series 1
Target: Histone acetyltransferase KAT6A, both winged helices, GST fusion (KAT6A, Homo sapiens, UniProt Q92794, residues 1-181)
Method: protein binding microarray
Form: double-stranded DNA, one strand shown
Sample: in vitro
Concentration: not given
Setting: 8-mer, flanks averaged, mean of 2 arrays, mostly near background
Reference: not given
Reading: higher = stronger binding
Construct (chain): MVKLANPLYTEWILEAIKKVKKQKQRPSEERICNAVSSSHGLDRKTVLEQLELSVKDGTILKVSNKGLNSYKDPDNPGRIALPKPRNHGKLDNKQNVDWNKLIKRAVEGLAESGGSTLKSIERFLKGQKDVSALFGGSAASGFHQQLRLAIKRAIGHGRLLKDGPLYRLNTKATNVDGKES
`ACATTGTG` has an E-score of -0.0877.
The E-score of `CAAGGCGA` is reported as -0.123.
For `ATTGTTGA`, the E-score was -0.0692.
With `ACGCCCTC` the E-score was 0.173.
`GAGGCATC` has an E-score of -0.135.
With `ACGGAGGA` the E-score was 0.0659.
`ACAACGTC` gave an E-score of -0.0471.
The E-score of `CGCAAGGA` is reported as 0.0149.
The E-score of `CTGAATAC` is reported as -0.0587.
`CAGAGTCA` has an E-score of 0.0352.
With `ATTTATCG` the E-score was 0.0557.
The E-score of `GCGAGTCC` is reported as 0.133.
`TATTAAAA` gave an E-score of 0.0525.
With `CAAGGCTG` the E-score was -0.248.
The E-score of `TACCCGCA` is reported as 0.236.
With `ATATCCAT` the E-score was -0.121.
`CGGGTCAG` has an E-score of 0.272.
For `GCCTCTCC`, the E-score was -0.206.
The E-score of `CTGCTAGC` is reported as -0.104.
For `ATATGTGG`, the E-score was -0.177.
The E-score of `AGAGAGAC` is reported as -0.177.
For `ACCCAAGA`, the E-score was -0.268.
With `AAATAACT` the E-score was -0.0558.
The E-score of `AGAACCCT` is reported as -0.0834.
For `AATGTAAG`, the E-score was -0.0589.

Series 2
Target: ABI1, truncated, D143A, DHFR fusion (Arabidopsis thaliana)
Method: DHFR PCA, deep sequencing
Sample: yeast
Setting: methotrexate growth selection, single substitutions
Together with: (+)-ABA 0.39 µM
Reference: wild-type fitted maximum
Reading: higher = stronger binding
Starting sequence: PYL1, truncated, DHFR fusion (Arabidopsis thaliana); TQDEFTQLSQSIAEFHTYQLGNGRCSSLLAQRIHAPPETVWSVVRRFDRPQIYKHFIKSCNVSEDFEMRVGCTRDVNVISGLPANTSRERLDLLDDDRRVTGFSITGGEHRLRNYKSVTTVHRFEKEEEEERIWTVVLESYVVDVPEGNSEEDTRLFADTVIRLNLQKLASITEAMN; partner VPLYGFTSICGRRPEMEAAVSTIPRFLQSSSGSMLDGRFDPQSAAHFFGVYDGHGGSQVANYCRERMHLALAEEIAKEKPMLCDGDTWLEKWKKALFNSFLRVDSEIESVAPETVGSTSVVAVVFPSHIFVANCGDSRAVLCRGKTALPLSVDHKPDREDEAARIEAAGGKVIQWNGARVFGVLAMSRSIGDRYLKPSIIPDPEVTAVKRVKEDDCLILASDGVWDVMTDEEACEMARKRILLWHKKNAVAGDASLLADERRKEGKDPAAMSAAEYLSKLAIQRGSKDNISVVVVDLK
`E174M`: “relative binding score” -13.6%.
For `Q167D`, “relative binding score” read -1.03%.
For `V70T`, “relative binding score” read 13.2%.
`E89T`: “relative binding score” -3.78%.
Under “relative binding score”, `M176H` is recorded as 17.3%.
`G108C`: “relative binding score” 1.99%.
`F47D`: “relative binding score” 14.2%.
Under “relative binding score”, `W41Y` is recorded as 6.34%.
For `G148N`, “relative binding score” read 0.293%.
Under “relative binding score”, `T39G` is recorded as 0.436%.
`V137K`: “relative binding score” -0.693%.
Under “relative binding score”, `L166T` is recorded as 4.74%.
`E64I` — result for “relative binding score”: 8.53%.
`I12M` — result for “relative binding score”: 6.77%.
For `T1Y`, “relative binding score” read 43.2%.

Series 3
Target: RNA binding protein fox-1 homolog 2, RRM domain, GST-SBP tag (RBFOX2, Homo sapiens, UniProt O43251-10, residues 100-194)
Method: RNA Bind-n-Seq
Form: RNA
Sample: in vitro
Concentration: 365 nM
Setting: natural RNA segment, single round, ends assumed
Reference: no-protein control
Reading: higher = stronger binding
Construct (chain): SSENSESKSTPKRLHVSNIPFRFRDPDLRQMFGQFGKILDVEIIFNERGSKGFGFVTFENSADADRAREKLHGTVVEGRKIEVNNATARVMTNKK
`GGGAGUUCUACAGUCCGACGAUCAGAGGCUGGCUACUCCUAGUUCCUGUGCUUCUUCCCAUCUCCUGUGAUCCCCCUCUCCCAUUUAUUCCCUUGAAGGUGCCCUUGUAUUCCUAAUCUGAUCUAAGAAGCUGUGGAAUUCUCGGGUGCCAA` — result for “RBNS enrichment (R)”: 1.27.
`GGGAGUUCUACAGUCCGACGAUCACCCUCAGAAAGACAUCCAAUUUUUUUAAAUCCCUGUAGCUCCAAGCCUGGUCUCAUUUGCUUCCCUGCCAGGCUCAUCGUGUGUAUACCACAUUUGUGCCCCACUGACCUGGAAUUCUCGGGUGCCAA`: “RBNS enrichment (R)” 1.06.
`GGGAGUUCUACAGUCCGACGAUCUCUAACAACUCAAAUUUUGCUUUUUGAAGCUGUAUUUUUAAGUUAAGAAAAUAUAUUUUUGGUAUAACUUUUAUGAGAAAAAUAAAAUAUAUUCUGGUCCAAACUUCUAAUGGAAUUCUCGGGUGCCAA`: “RBNS enrichment (R)” 0.635.
`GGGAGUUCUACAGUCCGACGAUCAGAACAUUGCCUUCCUCGUGCAGAGCUGGGGCUGCCAGCCUGAGCGGAGGCUCGGCCGUGGGCCGGGAGGCAGUGCUGAUCCGGCUGCUCCUCCAGCCCUUCAGACGAGAUGGAAUUCUCGGGUGCCAA`: “RBNS enrichment (R)” 0.391.
For `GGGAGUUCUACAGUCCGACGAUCGAAGCUGGUAGAGCAGCUUAAGAUGGAAGCCAAUAUCGACAGGAUAAAGGUGUCCAAGGCAGCUGCAGAUUUGAUGGCCUACUGUGAAGCACAUGCCAAGGAAGACCCCCUGGAAUUCUCGGGUGCCAA`, “RBNS enrichment (R)” read 0.267.
`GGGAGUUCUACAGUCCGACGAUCAGUGCUGAAAUGAGCUUGAGGUGUUCUUCAAAGCCAGUGUCACUGUGUGGGUCACUGUGAGGUGACUGCAUGGUGCCUGGCCCUGGCACAGCUGGUGACUUCCCUUGUAGUGGAAUUCUCGGGUGCCAA`: “RBNS enrichment (R)” 0.297.
`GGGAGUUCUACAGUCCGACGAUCUAUGGAAACAUGAGAUUCUCCUCUAUUGGAAGCUAAUUAGCCCACAAAGGUGGUAAACCUGUAGAUUGGGCCUUAAUUAGCAUUGUACUCUAAUCAAAGGACUCUUUCUAUGGAAUUCUCGGGUGCCAA` — result for “RBNS enrichment (R)”: 0.226.
For `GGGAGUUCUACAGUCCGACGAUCUGUCAUUUUCUUCAUCGGAUGUGACUAAAAUUUUUCUGGUGUCUUCUGCCCUCUCUUUAAUUUUGCCUCUUGAGGGGUAGCAGAUGUGUCAGUGCAUUUUAUUACUUGCUUGGAAUUCUCGGGUGCCAA`, “RBNS enrichment (R)” read 0.552.
`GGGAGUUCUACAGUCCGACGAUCCCCAGACUGGAAAUCCAUCACAUCCCAAGGCUCCUUGGCAGUCAUCUGUCUGUGUGGCUUGUUCUGUGGGCCUGAACUCCUAAGCACAGGUCGGGGGUAAAACUAGGAUGUGGAAUUCUCGGGUGCCAA` — result for “RBNS enrichment (R)”: 0.578.
For `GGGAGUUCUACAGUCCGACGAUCAUAGUUAAAGUAGACACGGCCUCCCACGCGAGUGUGGUGGGACCUUGAGACUUAGGAGGAUUGCCUGUUUUCAGUGUCCAGGGAAUGACUCCAUAGAUUUGAAUUCUUUUUGGAAUUCUCGGGUGCCAA`, “RBNS enrichment (R)” read 1.11.
Under “RBNS enrichment (R)”, `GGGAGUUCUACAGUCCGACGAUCUUGAAAUUCUGAACACCGUCAGCACCCUCUCUUCCCUAUCAUGGGUCAUCUGACCCCUGUCCGUCUCCUUGUCCCUGCUUCAUGUUUGGGGGCCUUUCUUUAACUGCCUUUGGAAUUCUCGGGUGCCAA` is recorded as 0.585.
`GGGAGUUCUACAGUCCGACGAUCGAGAGCAUGCGCAGAUGGGAAAGGCCCCGCCCCCCGCACAGGCGAUCACCCUCAUCUUCUUGGUUUGAAGCUUUAUUCAUGUCUCACGUAUCCUGUAGCCAUUUUAUUUUUGGAAUUCUCGGGUGCCAA`: “RBNS enrichment (R)” 9.44.

Series 4
Target: RING finger protein unkempt homolog, zinc fingers 1-6, GST-SBP tag (UNK, Homo sapiens, UniProt Q9C0B0, residues 30-357)
Chain of UniProt Q9C0B0 (30-357, looked up): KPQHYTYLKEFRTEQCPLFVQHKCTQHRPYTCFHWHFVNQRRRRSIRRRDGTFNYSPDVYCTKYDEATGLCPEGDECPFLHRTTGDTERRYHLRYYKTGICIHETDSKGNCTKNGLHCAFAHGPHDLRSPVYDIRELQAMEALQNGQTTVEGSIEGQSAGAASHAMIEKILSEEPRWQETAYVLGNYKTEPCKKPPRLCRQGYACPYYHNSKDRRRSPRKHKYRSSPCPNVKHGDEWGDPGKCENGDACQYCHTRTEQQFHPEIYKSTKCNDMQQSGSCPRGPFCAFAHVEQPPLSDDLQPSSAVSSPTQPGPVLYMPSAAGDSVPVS
Method: RNA Bind-n-Seq
Form: RNA
Sample: in vitro
Concentration: not given
Setting: RNA with constant flanks, ends assumed
Reference: input RNA pool
Reading: higher = stronger binding
The bound/input enrichment of `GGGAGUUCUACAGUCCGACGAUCUUCAUUUUUUUUUUUAAGUGGUUCUCUGCCACAAGAAAGCUUGACACAUUCUUACCAAGAACCCGCCAGGCUUCAUACUUUCUGCUGUGUUCCCGAUAUCUAUGUACUGUGAAGAACCGUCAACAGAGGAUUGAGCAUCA` is reported as 0.902 ratio.
With `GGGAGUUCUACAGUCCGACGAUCGAUACUGGUAAACUGACUGGCGGAUCAUUUACCAUGAAAUACCAUGAUAUGCCUGACGUUACCGAUUUCCUAGUCUUGAGACAACAAUUUGAUGAUGCAAAAUACAGGCGAUGGAAUAUACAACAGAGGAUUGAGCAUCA` the bound/input enrichment was 0.282 ratio.
The bound/input enrichment of `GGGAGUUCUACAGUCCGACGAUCAUUGAGAAAUAAUACUAUCUUCUACGUUACUUGUGUAAAAGGUGUGUCUGAUUGGACUUGUUCCGAAUUCCUUUUAAAACUAACUCAUUAGAUUGAAGGUAUAUUUUCUAAUUACAGUUCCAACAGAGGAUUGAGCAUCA` is reported as 1.35 ratio.
With `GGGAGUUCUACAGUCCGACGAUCACCCUCUCUGGGGUUCAAGAAGAGUCCGCUCUUUGCUAUCUUCUCCAGGUUGAUGAGUUCCGGUUUUUGUUGGACUGUGGCUGGGAUGAACACUUCUCUGUGGACAUUAUUGAUUCCCUGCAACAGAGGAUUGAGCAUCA` the bound/input enrichment was 0.117 ratio.
For `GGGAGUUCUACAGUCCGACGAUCGAGUCUAACAACAUUUUCAUUUCCGAAAGGCCAACAGAUGUUCUCCAGACAGUCAAGUUAUCCGAUCUUUCCUCUAAUCAAUUAAUUGAUGAAAAUCAGCUGUAUCUGAUAGCCCACCUGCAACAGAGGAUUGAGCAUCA`, the bound/input enrichment was 0.193 ratio.
`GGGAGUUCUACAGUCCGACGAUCAUUCUGUGGGCCACUCUCCCCAACGUUCUGACACUUCUGCAGUCUGAUCAGUGGCGAUGCCCGAUUAUAAUUUCAAACUGUGAAGAAUAAUGGUCUUGUCAUUUGCUCAAUGUGGGGUUACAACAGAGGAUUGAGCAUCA` gave a bound/input enrichment of 0.143 ratio.
`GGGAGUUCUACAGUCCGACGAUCGAUACUGGCAAACUGACCGGUGGAUCAUUUACCAUGAAAUACCAUGAUAUGCCUGACGUCACCGAUUUUCUAGUCUUGAGACAACAAUUUGAUGAUGCAAAGUAUAGACGAUGGAAUAUACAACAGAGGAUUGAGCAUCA` gave a bound/input enrichment of 0.243 ratio.
With `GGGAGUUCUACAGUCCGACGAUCCUAGGCCAAUUCUGCUUCUCCAUCCCAAAGGAAGAAAAUUUGCCUUCCUUUGCCGACCCUCCGCAGGAAAGCAAAAUUAAAGGAAAAGAUAAAAGGACGCAGAGGGAAAGUGACAGCGAGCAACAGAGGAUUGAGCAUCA` the bound/input enrichment was 0.47 ratio.
For `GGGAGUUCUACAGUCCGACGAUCCCUUUCUGUUACUUGACUCUUCCAUUGCCUAUGAAAAAAGAACGUAGCUUGGAAGUUUAUUCCGUCCGAAUGGAUCCACUUGCUAAACCUAUGCAAUACAAAGUUAUUGUGCCCAAAAUUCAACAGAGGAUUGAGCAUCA`, the bound/input enrichment was 0.159 ratio.
`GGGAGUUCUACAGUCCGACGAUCACUAUUGUUAAAAUGAACUGUUGCUAUUGUGAGAUGGAUUUCCUUUCGAAUGGCACUACCUCCGGGACAUUCUAGUAUUGCUUCUAUUGUUUGGGCAUUGUGGAUAAUGUACAGAUUUAACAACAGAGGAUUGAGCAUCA` gave a bound/input enrichment of 0.166 ratio.
With `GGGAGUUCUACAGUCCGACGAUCGGAGUUAAAGCUGUGUUUAUGAAUAAACAUGACUGGUAUGAAGAAUAUCCAACCACACCCCGCUCUUUUGUUUUAAAUGGCUUUAUGUAUUCUUUAAUUGGGCUGUAUGACUUAAAAGAACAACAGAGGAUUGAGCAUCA` the bound/input enrichment was 0.445 ratio.

Excerpt of the above (series 2):
`F47D`: “relative binding score” 14.2%.
Under “relative binding score”, `W41Y` is recorded as 6.34%.
For `G148N`, “relative binding score” read 0.293%.
Under “relative binding score”, `T39G` is recorded as 0.436%.
`V137K`: “relative binding score” -0.693%.
Under “relative binding score”, `L166T` is recorded as 4.74%.
